Experimental data gathered from unrelated publications.
Compare with care: the assays were run in different laboratories.
TDP1: Tyrosyl-DNA phosphodiesterase 1 (TDP1, Homo sapiens, UniProt Q9NUW8)
Sequence of UniProt Q9NUW8 (whole entry, looked up): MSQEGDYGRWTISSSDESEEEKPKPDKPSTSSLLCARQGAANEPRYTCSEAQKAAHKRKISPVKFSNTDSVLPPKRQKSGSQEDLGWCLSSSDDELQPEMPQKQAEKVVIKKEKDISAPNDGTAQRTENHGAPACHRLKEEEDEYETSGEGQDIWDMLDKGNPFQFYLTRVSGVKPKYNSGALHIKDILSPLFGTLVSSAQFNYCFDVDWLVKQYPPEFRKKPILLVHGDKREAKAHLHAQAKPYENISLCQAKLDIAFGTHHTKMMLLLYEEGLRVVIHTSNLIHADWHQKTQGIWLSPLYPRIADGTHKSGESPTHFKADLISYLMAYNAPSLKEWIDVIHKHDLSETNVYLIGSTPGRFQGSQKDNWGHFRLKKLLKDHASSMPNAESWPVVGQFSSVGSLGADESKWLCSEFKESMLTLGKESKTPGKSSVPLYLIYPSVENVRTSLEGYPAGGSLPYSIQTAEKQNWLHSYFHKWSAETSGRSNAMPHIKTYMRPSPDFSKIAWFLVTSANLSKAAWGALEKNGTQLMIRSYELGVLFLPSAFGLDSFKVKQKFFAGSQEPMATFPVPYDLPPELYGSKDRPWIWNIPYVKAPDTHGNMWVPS

CCCCCCCCCCCC[N+](C)(C)CCCCCCCCCCOc1cc(OCCCCCCCCCC[N+](C)(C)CCCCCCCCCCCC)cc(OCCCCCCCCCC[N+](C)(C)CCCCCCCCCCCC)c1.[Br-].[Br-].[Br-]
MIC (Enterococcus faecalis; OG1RF): 250 µM

CO[C@@H]1OC[C@@H](O)[C@H](O)[C@H]1O
MIC (Helicobacter pylori; microbial growth, broth dilution): > 125 µg/mL

CCCCCC[N+](C)(C)CCCCCCCCCCOc1cc(OCCCCCCCCCC[N+](C)(C)CCCCCC)cc(OCCCCCCCCCC[N+](C)(C)CCCCCC)c1.[Br-].[Br-].[Br-]
MIC (Enterococcus faecalis; OG1RF): 4 µM

Cc1c(CN(C)C(=O)/C=C/c2cnc3c(c2)CC(N)C(=O)N3)oc2ccccc12 (stereo not drawn)
MIC (Acinetobacter baumannii; broth microdilution; AR-0288): 32 µg/mL

CCCCCC[N+](C)(C)CCCCCCOc1cc(OCCCCCC[N+](C)(C)CCCCCC)cc(OCCCCCC[N+](C)(C)CCCCCC)c1.[Br-].[Br-].[Br-]
MIC (Enterococcus faecalis; OG1RF): 4 µM

CC1C=CC=CC(C)C2C=CC3CC(C)(O)C(Cl)C(C)C3C2C(=O)C(Cl)(Cl)C(=O)C(C)C(=O)O1 (stereo not drawn)
MIC (Staphylococcus aureus; MSSA clinical isolate; PEN SXT TET resistant): 0.05 µg/mL

CCCC(C)Oc1cccc(NC(=O)c2cccnc2)c1 (stereo not drawn)
MIC (Pichia kudriavzevii; microbial growth, broth dilution; ATCC6258): 128 µg/mL

CC[C@H](C)[C@@H]1NC(=O)[C@@H]([C@@H](C)O)NC(=O)CNC(=O)[C@H](CC(=O)O)NC(=O)CNC(=O)[C@H](CC(=O)O)NC(=O)CNC(=O)[C@H]2CCCCN2C(=O)[C@@H](NC(=O)[C@H](CC(=O)O)NC(=O)/C=C/CCCCCCCCCC(C)C)CNC(=O)[C@@H]2CCCN2C1=O
MIC (Staphylococcus aureus; broth microdilution; MRSA USA300, Mueller-Hinton broth, Mg2+ 10 mg/L; 16 h, 37 °C, added: Ca2+ 1.0 mM): 8 µg/mL

Cn1nc(CSc2ccccc2)c(C=NOCc2ccc(-c3nc4cc(-c5ccccc5)ccn4c3Nc3ccc(C(=O)O)cc3)cc2)c1Cl (mixture of isomers)
inhibition (TDP1; enzyme activity, inhibitor; 100 µM, unpurified compound): 61.6%

C=C(NC(=O)c1csc(-c2nc3c(cc2O)-c2nc(cs2)C(=O)NC(C(C)O)C(=O)NC(=C(C)OC)c2nc(cs2)C(=O)NC2c4nc(cs4)C(=O)NC(COC(=O)c4c5c6c(cccc6n4O)COC(=O)C(OC4CC(C)(O)C(N(C)C)C(C)O4)C2OC5)c2nc-3cs2)n1)C(N)=O (stereo not drawn)
MIC (Streptococcus pneumoniae; -4, penicillin-resistant; used for PK-PD modelling): 0.0156 µg/mL

CCCCCCCCCCCC[N+](C)(C)CCCCCCOc1cc(OCCCCCC[N+](C)(C)CCCCCCCCCCCC)cc(OCCCCCC[N+](C)(C)CCCCCCCCCCCC)c1.[Br-].[Br-].[Br-]
MIC (Enterococcus faecalis; OG1RF): 16 µM

Oc1c(Br)cc(Br)c2nc3c(C(F)(F)F)cc(C(F)(F)F)cc3nc12
MIC (Staphylococcus aureus; 129 MRSA clinical isolate): 0.1 µM

C[C@@H]1C(=O)O[C@@H](C)/C=C/C=C\[C@@H](C)[C@@H]2C=C[C@@H]3C[C@@]4(C)O[C@H]4[C@@H](C)[C@H]3[C@@H]2C(=O)C(Cl)(Cl)C1=O
MIC (Staphylococcus aureus; MRSA clinical isolate; resistant, OXA, CIP, MXF, ERY, CLI, DAP, VAN): 0.05 µg/mL

CN[C@H](CC(C)C)C(=O)N[C@H]1C(=O)N[C@@H](CC(N)=O)C(=O)N[C@H]2C(=O)N[C@H]3C(=O)N[C@H](C(=O)N[C@H](C(=O)O)c4cc(O)cc(O)c4-c4cc3ccc4O)[C@H](O)c3ccc(c(Cl)c3)Oc3cc2cc(c3O[C@@H]2O[C@H](CO)[C@@H](O)[C@H](O)[C@H]2O[C@H]2C[C@](C)(N)[C@H](O)[C@H](C)O2)Oc2ccc(cc2Cl)[C@H]1O
MIC (Virgibacillus; broth microdilution; DSM 28587; 24 h, aerobic, 30 °C, BHI medium): 0.25 µg/mL

CN(C)C=C(C=NOCc1ccc2nc(-c3ccccc3)c(Nc3ccc(C(=O)O)cc3)n2c1)c1ccccc1[N+](=O)[O-] (mixture of isomers)
inhibition (TDP1; enzyme activity, inhibitor; 100 µM, unpurified compound): -0.4%

Some of these lines once more:
CCCC(C)Oc1cccc(NC(=O)c2cccnc2)c1 (stereo not drawn)
MIC (Pichia kudriavzevii; microbial growth, broth dilution; ATCC6258): 128 µg/mL

CC[C@H](C)[C@@H]1NC(=O)[C@@H]([C@@H](C)O)NC(=O)CNC(=O)[C@H](CC(=O)O)NC(=O)CNC(=O)[C@H](CC(=O)O)NC(=O)CNC(=O)[C@H]2CCCCN2C(=O)[C@@H](NC(=O)[C@H](CC(=O)O)NC(=O)/C=C/CCCCCCCCCC(C)C)CNC(=O)[C@@H]2CCCN2C1=O
MIC (Staphylococcus aureus; broth microdilution; MRSA USA300, Mueller-Hinton broth, Mg2+ 10 mg/L; 16 h, 37 °C, added: Ca2+ 1.0 mM): 8 µg/mL
